Measurements from different studies.
Numbered parts are unrelated; each lists some results of a single study. Substitutions count along the parent as printed.

Set 1 — technique: universal PBM; form: double-stranded DNA, one strand shown; matrix: in vitro; tested at: not given; reading: higher = stronger binding; measurement: E-score
Target: Sal-like protein 4, full length isoform B (SALL4, Homo sapiens, UniProt Q9UJQ4-2, residues 1-616)
Notes: 8-mer, flanks averaged, mean of replicates
Residues (chain): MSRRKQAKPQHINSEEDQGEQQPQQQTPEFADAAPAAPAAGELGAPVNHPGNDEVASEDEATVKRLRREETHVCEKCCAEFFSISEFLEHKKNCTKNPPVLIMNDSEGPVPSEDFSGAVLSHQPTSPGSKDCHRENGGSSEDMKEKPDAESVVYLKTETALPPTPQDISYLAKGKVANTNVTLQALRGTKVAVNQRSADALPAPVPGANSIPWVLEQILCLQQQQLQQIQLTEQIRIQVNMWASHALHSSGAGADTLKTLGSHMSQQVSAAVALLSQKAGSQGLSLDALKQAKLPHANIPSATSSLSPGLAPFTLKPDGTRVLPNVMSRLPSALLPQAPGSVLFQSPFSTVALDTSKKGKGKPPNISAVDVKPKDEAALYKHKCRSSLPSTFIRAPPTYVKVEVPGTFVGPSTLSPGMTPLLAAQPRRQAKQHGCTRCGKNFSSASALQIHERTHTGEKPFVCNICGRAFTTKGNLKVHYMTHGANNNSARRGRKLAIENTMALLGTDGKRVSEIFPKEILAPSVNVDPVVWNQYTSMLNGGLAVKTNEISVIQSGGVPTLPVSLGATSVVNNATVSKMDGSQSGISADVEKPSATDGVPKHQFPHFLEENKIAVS
AGTTTAAG: 0.103
GCAGGCAA: -0.057
AGGCCTAA: -0.0324
ACTCCGCG: -0.287
CTGCTTCC: -0.141
GCAAGAAC: 0.0839
GTCACCAA: -0.0299
GATGACTA: 0.0777
CCTCTTCC: -0.189
AAGGAACT: -0.00335

Set 2 — technique: protein-binding microarray; form: double-stranded DNA, one strand shown; matrix: in vitro; tested at: 940 nM top; notes: 60-bp whole probe; together with: salmon DNA 0.4 mg/ml; reference: random background probes; reading: higher = stronger binding; measurement: fitted relative affinity; shared flanks, not repeated: GCCTAGCAC … GTCTTGATTCGCTTGACGCTGCTG
Target: Interferon regulatory factor 5, full length, phosphomimetic (IRF5, Homo sapiens, UniProt Q13568-2, residues 1-514, S451D/S453D/S456D/S462D)
GACGGTATCGCTCTCGGGACGTGCTAG: 4.32 z-score
TTAGGACTGAGTATCGATTAGTGCTAG: 3.85 z-score
GACGATTGCGGGTATCGAGACGTGCTA: 0.872 z-score
TTGGATATCAGTATCGATTAGTGCTAG: 4.7 z-score
GACGGACTCGACTATCGGGACGTGCTA: -0.12 z-score
TTAGAACCGGGGTTTCGATTAGTGCTA: 5.61 z-score
TTAGATATCAGACTGGCTTAGTGCTAG: -0.175 z-score
TCAGCTTTCTTTTTGCAACTGTGCTAG: 0.809 z-score
TAAATTCTGAAAATGGAAACGTGCTAG: -0.079 z-score
GACGGTTTTCTTCTCCTGACGTGCTAG: 1.48 z-score
TTAGATTTCAGGTCCGATTAGTGCTAG: 0.331 z-score
TCATGGCTCCCTATAAAACTGTGCTAG: -0.0353 z-score
TTAGGACTGGGACTGGTTTAGTGCTAG: -0.517 z-score
GACGGTTTCCTACTACTGACGTGCTAG: 1.5 z-score
TTAGGTCTAGGTATCGGTTAGTGCTAG: 3.78 z-score

Set 3 — technique: DHFR PCA, deep sequencing; matrix: yeast; together with: (+)-ABA 0.0091 µM; reference: wild-type fitted maximum; reading: higher = stronger binding; measurement: relative binding score
Target: ABI1, truncated, D143A, DHFR fusion (Arabidopsis thaliana)
Notes: methotrexate growth selection, single substitutions
Starting sequence: PYL1, truncated, DHFR fusion (Arabidopsis thaliana); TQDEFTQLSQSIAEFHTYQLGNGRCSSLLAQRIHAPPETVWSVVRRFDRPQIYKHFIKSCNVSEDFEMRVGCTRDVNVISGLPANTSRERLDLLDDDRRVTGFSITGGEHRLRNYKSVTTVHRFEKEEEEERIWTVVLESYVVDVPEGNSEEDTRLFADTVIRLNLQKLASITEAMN; partner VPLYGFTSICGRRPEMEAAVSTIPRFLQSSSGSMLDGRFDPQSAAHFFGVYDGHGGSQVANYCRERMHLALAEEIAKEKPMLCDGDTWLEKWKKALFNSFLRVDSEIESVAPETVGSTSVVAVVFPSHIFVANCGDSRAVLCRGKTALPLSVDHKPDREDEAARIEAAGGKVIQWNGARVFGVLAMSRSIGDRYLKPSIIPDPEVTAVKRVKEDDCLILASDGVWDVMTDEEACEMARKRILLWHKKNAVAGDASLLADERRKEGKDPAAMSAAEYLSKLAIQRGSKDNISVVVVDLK
A175Y: 1.99%
S171D: 37.8%
E174N: -1.63%
Q167A: 23.7%
C25R: -1.63%
I57W: -2.75%
V145G: -1.41%
T86D: 3.88%
E89Y: 7.69%
A84K: 9.76%

Single results of other studies
PhoQ, residues 284 288 289 292 302 303 TNSAEL  fold induction (PhoP, residues 12 14 15 18 19 LHHVQ (Escherichia coli, UniProt P23836); Sort-seq, measured: YFP reporter; E. coli; PhoQ-PhoP variant library, together with: 10 µM Mg2+; reference: high Mg2+ state, higher = stronger signaling): 17.7

For quick reference, copied from above (set 2):
TTAGAACCGGGGTTTCGATTAGTGCTA: 5.61 z-score
GACGATTGCGGGTATCGAGACGTGCTA: 0.872 z-score
TTAGGACTGAGTATCGATTAGTGCTAG: 3.85 z-score
TTGGATATCAGTATCGATTAGTGCTAG: 4.7 z-score
TTAGGTCTAGGTATCGGTTAGTGCTAG: 3.78 z-score
